Measured values gathered from unrelated publications.
Every numbered part comes from another study and shows a few of its results, in no order. Positions count from the first letter of the parent shown.
UniProt Q9C5X0, sequence (whole entry, looked up): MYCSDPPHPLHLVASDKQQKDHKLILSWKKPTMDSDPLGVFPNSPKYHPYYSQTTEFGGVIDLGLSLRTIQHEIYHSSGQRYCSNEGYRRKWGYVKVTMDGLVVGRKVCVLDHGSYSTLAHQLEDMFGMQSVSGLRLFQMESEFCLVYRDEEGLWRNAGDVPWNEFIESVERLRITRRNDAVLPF
UniProt Q9XID4, sequence (whole entry, looked up): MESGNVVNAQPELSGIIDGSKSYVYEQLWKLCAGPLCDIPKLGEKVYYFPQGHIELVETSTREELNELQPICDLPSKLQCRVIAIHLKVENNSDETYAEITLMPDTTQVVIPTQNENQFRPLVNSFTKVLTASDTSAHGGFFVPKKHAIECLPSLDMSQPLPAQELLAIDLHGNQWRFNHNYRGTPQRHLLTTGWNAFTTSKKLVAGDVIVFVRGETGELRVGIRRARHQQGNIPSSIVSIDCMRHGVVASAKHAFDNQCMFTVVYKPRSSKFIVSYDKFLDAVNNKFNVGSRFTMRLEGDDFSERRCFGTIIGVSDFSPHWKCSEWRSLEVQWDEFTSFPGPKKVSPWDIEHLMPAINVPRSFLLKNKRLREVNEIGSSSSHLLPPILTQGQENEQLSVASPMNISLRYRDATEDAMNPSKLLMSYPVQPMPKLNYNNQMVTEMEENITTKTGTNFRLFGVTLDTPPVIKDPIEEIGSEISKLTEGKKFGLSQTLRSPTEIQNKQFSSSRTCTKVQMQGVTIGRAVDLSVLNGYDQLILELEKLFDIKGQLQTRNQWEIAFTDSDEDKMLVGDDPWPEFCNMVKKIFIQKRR
UniProt Q9XFM0, sequence (whole entry, looked up): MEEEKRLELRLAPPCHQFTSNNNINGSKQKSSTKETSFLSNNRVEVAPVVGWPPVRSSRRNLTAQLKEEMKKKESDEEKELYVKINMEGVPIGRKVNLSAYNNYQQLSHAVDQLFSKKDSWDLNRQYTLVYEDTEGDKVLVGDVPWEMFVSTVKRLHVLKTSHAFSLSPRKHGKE
UniProt Q9XED8, sequence (whole entry, looked up): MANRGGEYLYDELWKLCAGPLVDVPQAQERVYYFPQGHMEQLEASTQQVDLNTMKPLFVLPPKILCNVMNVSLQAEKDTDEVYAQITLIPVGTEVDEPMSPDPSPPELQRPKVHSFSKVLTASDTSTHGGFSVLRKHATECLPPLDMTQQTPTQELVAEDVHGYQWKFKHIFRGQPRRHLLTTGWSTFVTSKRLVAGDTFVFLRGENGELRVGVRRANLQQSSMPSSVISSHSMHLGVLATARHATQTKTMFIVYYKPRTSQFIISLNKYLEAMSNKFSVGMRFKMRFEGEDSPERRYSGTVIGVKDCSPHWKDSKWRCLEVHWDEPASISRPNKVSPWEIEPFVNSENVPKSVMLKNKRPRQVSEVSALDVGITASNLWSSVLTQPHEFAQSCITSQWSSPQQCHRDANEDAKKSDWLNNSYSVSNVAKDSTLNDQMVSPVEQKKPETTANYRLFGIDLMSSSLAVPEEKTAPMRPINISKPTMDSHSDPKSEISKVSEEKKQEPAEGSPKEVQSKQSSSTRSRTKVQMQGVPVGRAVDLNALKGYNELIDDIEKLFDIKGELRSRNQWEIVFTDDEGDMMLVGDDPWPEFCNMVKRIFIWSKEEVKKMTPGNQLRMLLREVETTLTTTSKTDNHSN

Block 1 — technique: RNA Bind-n-Seq; form: RNA; medium: in vitro; tested at: 365 nM; reference: no-protein control; direction: higher = stronger binding; endpoint: RBNS enrichment (R)
Target: RNA binding protein fox-1 homolog 2, RRM domain, GST-SBP tag (RBFOX2, Homo sapiens, UniProt O43251-10, residues 100-194)
Notes: natural RNA segment, single round, ends assumed
Construct (chain): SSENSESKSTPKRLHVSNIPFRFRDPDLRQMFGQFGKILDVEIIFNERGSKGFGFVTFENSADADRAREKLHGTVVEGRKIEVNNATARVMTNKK
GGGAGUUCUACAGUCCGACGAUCUUCUCUGUGUCCUCACUGUGGGGCUGAGGUCUCAGGGGCUCCCCUCUGCUAAGGUUCCUUCCCUUUGUCUCUGGAAACCCAACCCCACAAGGACAGAGUGGUGAGAACUCUGGAAUUCUCGGGUGCCAA: 0.436
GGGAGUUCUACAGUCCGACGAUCUCCCUAACGGAAGCCCUAAAUCCCAGAGAGCUACAGGUCUGCUCCCCAUGGGCCCUCGGGCCUGACCAAUCCAGACGAGGCAGAGAGCAGCAGCGACUCAAGGGCCGUGUUGGAAUUCUCGGGUGCCAA: 0.346
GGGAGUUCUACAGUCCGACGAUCAGCCAACCCCAGCCUCCUGCCAGGAUCACCUCGGCGGUCACACUCCAGCCAAAUAGUGUUCUCGGGGUGGUGGCUGGGCAGCGCCUAUGUUUCUCUGGAGAUUCCUGCAAUGGAAUUCUCGGGUGCCAA: 0.21
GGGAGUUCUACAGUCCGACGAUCCAACUUUUUUGAUAUUUACUAGAAAUGAUGCAAUAUAUCCUUUCUGAGAUAUUUACAGUAUUAUUAAAGGGUUGGGCUGUUUUGCAUAACAAACUUUUUAUUGGCAUACCUGGAAUUCUCGGGUGCCAA: 0.334
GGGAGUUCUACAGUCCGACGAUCAUGCGCCACCAGGAAUCCAGUCUUGUCAUUACAUAAAUAAUCUAAAUGACACUCAGAGAGGGACAGUGCAGUUUGACAUUCAGAUAACAGCAGCAUUGGCUGCUUUUGUUUGGAAUUCUCGGGUGCCAA: 0.626
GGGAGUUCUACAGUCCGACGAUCUCUUCUGAUGCCCCCAGACUCUUGGAGCACAUCCUGGUGCCCCUCCUGCAGGAGCCUGUGGCAUAUUUCCAGCUGGGCAUGCUGAUCCUCCUUGAGACACAGAUGCCUGUUGGAAUUCUCGGGUGCCAA: 0.284
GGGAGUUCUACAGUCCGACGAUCGUAUUUCAUUGCAUGGGCGUACUACUCUGCUUCUUUAUUUUUACACUGAGCCUUUCGCCCUGGAAGUUCUUGGCCCAGGGUCUUCAACUUGUUUGCACGACCACUUCCAGUGGAAUUCUCGGGUGCCAA: 4.68
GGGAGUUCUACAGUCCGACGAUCAUCAGAAAGAAACUAAGAAAAAGGAUAAAAAUAUCCAAAGGAGUUACAUUUUGAGGAAAAAGAACAAAAAAGAAGGUUAUUGCAAAACUGAUGAUGCCCAUGAUACAAUUUGGAAUUCUCGGGUGCCAA: 0.642

Block 2 — Sequence: B1 (IAA13); technique: two-hybrid; direction: higher = firmer interaction; endpoint: positive tests
B1: IAA13 (Arabidopsis thaliana, UniProt Q38831); chain MITELEMGKGESELELGLGLSLGGGTAAKIGKSGGGGAWGERGRLLTAKDFPSVGSKRAADSASHAGSSPPRSSSQVVGWPPIGSHRMNSLVNNQATKSAREEEEAGKKKVKDDEPKDVTKKVNGKVQVGFIKVNMDGVAIGRKVDLNAHSSYENLAQTLEDMFFRTNPGTVGLTSQFTKPLRLLDGSSEFVLTYEDKEGDWMLVGDVPWRMFINSVKRLRVMKTSEANGLAARNQEPNERQRKQPV
ARF12 500-593 (Arabidopsis thaliana, UniProt Q9XID4); reference: out of 4 tests: 0
ARF9 519-638 (Arabidopsis thaliana, UniProt Q9XED8); weak activation fusion; reference: out of 2 tests: 2
IAA34 (Arabidopsis thaliana, UniProt Q9C5X0); reference: out of 4 tests: 2
IAA28 (Arabidopsis thaliana, UniProt Q9XFM0); reference: out of 2 tests: 1

Block 3 — technique: DHFR PCA, deep sequencing; medium: yeast; added: (+)-ABA 0.11 µM; reference: wild-type fitted maximum; direction: higher = stronger binding; endpoint: relative binding score
Target: ABI1, truncated, D143A, DHFR fusion (Arabidopsis thaliana)
Notes: methotrexate growth selection, single substitutions
Starting sequence: PYL1, truncated, DHFR fusion (Arabidopsis thaliana); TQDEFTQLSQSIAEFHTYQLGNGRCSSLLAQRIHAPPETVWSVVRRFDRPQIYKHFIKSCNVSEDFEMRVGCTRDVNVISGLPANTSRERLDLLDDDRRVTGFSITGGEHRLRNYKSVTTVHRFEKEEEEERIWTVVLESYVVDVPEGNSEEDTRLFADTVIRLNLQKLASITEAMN; partner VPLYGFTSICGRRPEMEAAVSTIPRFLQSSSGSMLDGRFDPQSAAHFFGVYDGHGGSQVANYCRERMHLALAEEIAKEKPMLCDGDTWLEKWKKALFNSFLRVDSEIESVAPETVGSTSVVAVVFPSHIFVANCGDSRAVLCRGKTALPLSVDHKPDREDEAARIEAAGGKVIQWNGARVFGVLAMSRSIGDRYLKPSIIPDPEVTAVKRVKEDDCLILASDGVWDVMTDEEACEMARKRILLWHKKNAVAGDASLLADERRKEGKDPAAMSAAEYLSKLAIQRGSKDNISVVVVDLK
I79T: 24.7%
I133E: 63.4%
S42R: 14.8%
S150R: 7.26%
H110L: 14.7%
Q10T: 31.7%
S26E: -1.38%
R69W: -4.03%
R132Y: 15.9%
E129C: 34.7%
V137N: 12.8%
H122C: -4.49%
S80M: 43.1%
D3G: 13.9%
F47R: -2.52%
E64F: -9.01%
R49F: -4.56%

Block 4 — technique: protein-binding microarray; form: double-stranded DNA, one strand shown; medium: in vitro; tested at: 250 nM; notes: 60-bp whole probe; added: salmon DNA 0.4 mg/ml; reference: random background probes; direction: higher = stronger binding; endpoint: log fluorescence; shared flanks, not repeated: GCCTAGCAC … GTCTTGATTCGCTTGACGCTGCTG
Target: Interferon regulatory factor 7, full length, phosphomimetic (IRF7, Homo sapiens, UniProt Q92985, residues 1-503, S101K/S471D/S472D/S475D/S476D/S477D/S483D/S484D/S487D)
UniProt Q92985, sequence (whole entry, unmodified, looked up): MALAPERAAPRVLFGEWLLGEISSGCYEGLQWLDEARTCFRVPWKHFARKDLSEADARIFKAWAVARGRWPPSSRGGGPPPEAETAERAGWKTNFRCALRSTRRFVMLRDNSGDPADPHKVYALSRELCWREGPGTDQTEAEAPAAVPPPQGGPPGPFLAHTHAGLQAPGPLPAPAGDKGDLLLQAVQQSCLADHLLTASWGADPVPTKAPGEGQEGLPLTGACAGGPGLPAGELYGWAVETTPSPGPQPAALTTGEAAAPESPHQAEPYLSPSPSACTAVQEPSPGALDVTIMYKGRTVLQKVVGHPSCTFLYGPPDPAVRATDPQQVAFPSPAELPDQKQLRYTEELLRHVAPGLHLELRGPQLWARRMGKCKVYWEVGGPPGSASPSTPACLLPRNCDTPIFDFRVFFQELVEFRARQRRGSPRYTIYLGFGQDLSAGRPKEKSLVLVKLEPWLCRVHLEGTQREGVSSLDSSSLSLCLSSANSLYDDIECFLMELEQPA
GACGGTTTCCTACTGTTGACGTGCTAG: 1.53 z-score
ATAGGTTTCGACTTTCGGTTAGTGCTA: 11.4 z-score
TTAGGTTCCCTTTTCCTTTCGTGCTAG: 4.43 z-score
GACGGTCTCCTAATCCTGACGTGCTAG: 0.228 z-score
GTGCTTCACAGAGGCGGCTGGTGCTAG: 0.13 z-score
GACGGTTTCGACACTGGGTACGTGCTA: 3.84 z-score
GACGGACTACTTTTCCTGACGTGCTAG: 0.361 z-score
TTAGGGCTCCTTTTCCTTTAGTGCTAG: 1.46 z-score
GACGATTTCGGGTTTCGAGGCGTGCTA: 3.04 z-score
GACGGATTCGACTTTCGGGACGTGCTA: 3.07 z-score
GACGGTCTCGGACCGGGGACGTGCTAG: -0.023 z-score
TTAGATTTCAGTATTGATTAGTGCTAG: 0.376 z-score
TTAGAACTGAGCATCGATTAGTGCTAG: -0.272 z-score
GACGGAATCGACTTTCGGGACGTGCTA: 0.56 z-score
TTAGATATCGAGACTGGATTAGTGCTA: 0.432 z-score
TTAGAACTGCGGACTGGATTAGTGCTA: -0.326 z-score
GACGATGTCAGTATCGAGACGTGCTAG: -0.28 z-score
AGATATCTGCACTCTCATGTGTGCTAG: -0.327 z-score
TTAGGGTTCGGGTATCGGTTAGTGCTA: 1.42 z-score

For quick reference, copied from above (block 4):
GACGGTTTCGACACTGGGTACGTGCTA: 3.84 z-score
GACGGACTACTTTTCCTGACGTGCTAG: 0.361 z-score
TTAGGGCTCCTTTTCCTTTAGTGCTAG: 1.46 z-score
GACGATTTCGGGTTTCGAGGCGTGCTA: 3.04 z-score
GACGGATTCGACTTTCGGGACGTGCTA: 3.07 z-score
GACGGTCTCGGACCGGGGACGTGCTAG: -0.023 z-score
